Assay results pooled from the literature.
Parts stem from different laboratories: compare values within a part only. Substitutions count along the parent as printed.

Block 1
Target: RNA binding protein fox-1 homolog 2, RRM domain, GST-SBP tag (RBFOX2, Homo sapiens, UniProt O43251-10, residues 100-194)
Technique: RNA Bind-n-Seq
Molecule type: RNA
Matrix: in vitro
Concentration: 365 nM
Setting: natural RNA segment, single round, ends assumed
Reference: no-protein control
Reading: higher = stronger binding
Measurement: RBNS enrichment (R)
All sequences stand within: GGGAGUUCUACAGUCCGACGAUC … UGGAAUUCUCGGGUGCCAA
Target sequence (chain): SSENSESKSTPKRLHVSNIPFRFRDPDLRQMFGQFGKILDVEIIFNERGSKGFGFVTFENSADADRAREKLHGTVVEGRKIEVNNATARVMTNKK
Oligonucleotide = CUCUGCUUUCUCAGCUUGUCGCUGUGCUCCCACCAUAAGACCAUCUAGACAGCCUCUGGUCUACCAGGACAAGGCCCAGUCCCACUCAGCUCCUUUGAGAGCACCAGAAA; result = 0.278
Oligonucleotide = UAAAGAAAAAUUGUUCUCUAACCAGGAUUGUAACAAAUGUGUAAAUAGUAUUUCUGAGUUGAAAGUCGAUGGUGCAAAUAUGUAUAUAACGUACUGUAUUUUUACAAUGA; result = 0.517
Oligonucleotide = UUUGAGAUUCUGUAGGAGGGAGGGAAGGACAGCACCUGUGGCCACCUUCCCUCUUCCGGAUCUGUUUUGGUCUGGACUAUGGGCUCAUCAGGCCCAGGAUCCCGGACCAA; result = 0.247
Oligonucleotide = GAGAAGUGAGGUUCAGGGAGGGUGCUUAGAGACCAGCCUGUUCUUUGAGCUGUAGAGACUCAUGCUGGAUUCAAACUGAGAACCCUGGAAGGAAGGCCAGGCUAGUUUAG; result = 1.64
Oligonucleotide = UGGCUUUACUGUUGGAAGUUGUCUAUUUCAACCUCAGAGUUUCCUAAUAUGGCGCUCCUGAUCUAUCUUACUCAAGUGCCCUCCCAUAUGUAUACCCCAACAUCUUUUCC; result = 0.702
Oligonucleotide = CCACCAGAACAAAACCUGUUAAUUCAGCUUGACUUCUCAUAUGUGUUCUGUGUUCAAGCUCCUGUGGGCAACUCAAUUGUUUUAAGAAAACUCUAUUUCUGUUCAUAUUA; result = 0.46
Oligonucleotide = UUUGUGGGAUGUCCCCAAAGGAAAGCUAUGUUCUAAUUUUAUCAUUUCCAUCUGUCUGGUUAUGUCAAGUUAAUUCAGAAAGAGAAGAGACAGUGACCAACCCUGAGAGG; result = 0.691
Oligonucleotide = AAAGGUGCUGGAGAAAACAUGUAUAGAACUCAGAAUAAAAUGGAAAAUCAUAAUAAAAAUGUUAGUGAUAGAUUUGUUCUGAGUGAACAUCACAAAAAAAAAUUCAAAGA; result = 0.574
Oligonucleotide = GAGGUCCACUCGUGACCUAGGCCGCCCCACUCCCAUCCACCGAGAGUCAAGUGAUGACACGACACACUUGAAACCCUGGCAAGUGGCUGCAAGGUGAGGAUUGGACUCGU; result = 0.3
Oligonucleotide = UGGCAGUUUGGACAGGGGUGACUGUUCACACGUAUGGACAGGCCUCGCCUGGGGAGUAAGGCCACCAACCAAAGUCAGUUCCUUCCCACCUGUGUUUCUGAUUUUGUUUU; result = 0.656
Oligonucleotide = AAAUUCGCAUCUAACUGAAUGGUAGUGUCUUUAAAAUGUGCUGUUUUAUUUUAAAAAUAAUGCAUGUGCACUUUAGAAAUUUUUGAAAAUAAAGAUACAUGAAAGAAAGU; result = 3.79
Oligonucleotide = GUUUUAUUUGUAUAGUCUUACGUUGAUAGACAGCCCCACUGGAAUUGACCAAUUGUCUACACAGCGACACAGAGUGUUGUGUAUGAAACGGAGUAACUGGCUUAAGGGGU; result = 0.55

Block 2
Target: ABI1, truncated, D143A, DHFR fusion (Arabidopsis thaliana)
Technique: DHFR PCA, deep sequencing
Matrix: yeast
Setting: methotrexate growth selection, single substitutions
Added: (+)-ABA 710 µM
Reference: wild-type fitted maximum
Reading: higher = stronger binding
Measurement: relative binding score
Parent: PYL1, truncated, DHFR fusion (Arabidopsis thaliana); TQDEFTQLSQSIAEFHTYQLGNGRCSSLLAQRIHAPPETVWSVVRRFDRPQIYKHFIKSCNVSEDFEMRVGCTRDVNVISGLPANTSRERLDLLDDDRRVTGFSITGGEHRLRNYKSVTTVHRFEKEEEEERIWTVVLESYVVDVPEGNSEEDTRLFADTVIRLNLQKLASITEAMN
Variant = R69M; result = 98.9%
Variant = E67V; result = 102%
Variant = V43G; result = 0.571%
Variant = Q31P; result = -8.7%
Variant = A35K; result = 62.7%
Variant = E89D; result = 89.7%
Variant = E14G; result = 87%
Variant = T173V; result = 97.8%
Variant = C60L; result = 76.7%
Variant = C72R; result = 89%
Variant = E147N; result = 102%
Variant = H34C; result = 97.7%
Variant = E152P; result = 89.5%
Variant = S11M; result = 97.7%
Variant = H55E; result = 102%
Variant = R98K; result = 109%
Variant = G148K; result = 90.4%
Variant = V145P; result = 78.8%
Variant = R155D; result = -5.2%
Variant = D96I; result = 62.8%
Variant = I105N; result = 74.8%

Block 3
Target: Interferon regulatory factor 5, full length, phosphomimetic (IRF5, Homo sapiens, UniProt Q13568-2, residues 1-514, S451D/S453D/S456D/S462D)
Technique: protein-binding microarray
Molecule type: double-stranded DNA, one strand shown
Matrix: in vitro
Concentration: 940 nM top
Setting: 60-bp whole probe
Added: salmon DNA 0.4 mg/ml
Reference: random background probes
Reading: higher = stronger binding
Measurement: fitted relative affinity
All sequences stand within: GCCTAGCAC … GTCTTGATTCGCTTGACGCTGCTG
Oligonucleotide = TCACTTCTGGTGCTCATACTGTGCTAG; result = 0.759 z-score
Oligonucleotide = TTAGATATCAGTCTCGAATAGTGCTAG; result = 1.06 z-score
Oligonucleotide = TTAGATCTCAGTCTCGATTAGTGCTAG; result = 3 z-score
Oligonucleotide = GACGGTTGCGACTTTCGGGACGTGCTA; result = 1.18 z-score
Oligonucleotide = GACGATATCGAGTTTCGAGACGTGCTA; result = 3.13 z-score
Oligonucleotide = GGCGGACTGGGGTTTCGGGACGTGCTA; result = 1.62 z-score
Oligonucleotide = GACGGTATCGACACTGGGGAGGTGCTA; result = 3.72 z-score
Oligonucleotide = TCACCTCTTTCTTTGCTACTGTGCTAG; result = 1.34 z-score
Oligonucleotide = GCCGGTATCCTTCTCCTGACGTGCTAG; result = 1.04 z-score
Oligonucleotide = GACGGTCTCGGACTGGGCACGTGCTAG; result = 0.388 z-score
Oligonucleotide = TTCGATTTCAGTATCGATTAGTGCTAG; result = 6.46 z-score
Oligonucleotide = GACGGTTCCGACACTGGGGACGTGCTA; result = 0.237 z-score
Oligonucleotide = TTAGATATCAGTCTCGATTGGTGCTAG; result = 2.97 z-score
Oligonucleotide = TTAGTTATCGGGTTTCGGTTAGTGCTA; result = 6.49 z-score
Oligonucleotide = TTAGGTTTCGGGATCGGTTAGTGCTAG; result = 8.74 z-score
Oligonucleotide = TCACTTTTCATGCTCTTACTGTGCTAG; result = 1.65 z-score
Oligonucleotide = GACGATTTCTGTTTCGAGACGTGCTAG; result = 2.67 z-score
Oligonucleotide = GACGCTTTCGGACTGGGGACGTGCTAG; result = 1.75 z-score
Oligonucleotide = GTCTGTTTGGGTCTTGTCTGGTGCTAG; result = 0.251 z-score
Oligonucleotide = TTAGATATCGGTCTCGGTTAGTGCTAG; result = 3.06 z-score
Oligonucleotide = CGAGGTCTCGCTATGTTGTCGTGCTAG; result = 1.06 z-score
Oligonucleotide = GACGAAATGAGTCTCGAGACGTGCTAG; result = 1.1 z-score
Oligonucleotide = GAAGGTTTCGACACTGGGGACGTGCTA; result = 6.1 z-score

Block 4
Target: CCND2, cyclin fold, Cln2 fusion (human)
Technique: yeast growth competition, sequencing
Matrix: yeast
Setting: weak parent motif
Reference: not given
Reading: higher = stronger binding
Measurement: normalised enrichment score
Parent: DNAH7 docking peptide (human); HELFQRLDFDNDG
Variant = HELFQRLDADNDG [F9A]; result = -0.259
Variant = HEAFQRLDFDNDG [L3A]; result = 0.0284
Variant = HELFQALDFDNDG [R6A]; result = 0.023
Variant = HELFQRLAFDNDG [D8A]; result = -0.0469
Variant = HELFQRLDFDADG [N11A]; result = 0.198
Variant = HELFQRLDFANDG [D10A]; result = -0.111
Variant = HELAQRLDFDNDG [F4A]; result = -0.115

Block 5
Target: RING finger protein unkempt homolog, zinc fingers 1-6, GST-SBP tag (UNK, Homo sapiens, UniProt Q9C0B0, residues 30-357)
UniProt Q9C0B0, sequence (30-357, looked up): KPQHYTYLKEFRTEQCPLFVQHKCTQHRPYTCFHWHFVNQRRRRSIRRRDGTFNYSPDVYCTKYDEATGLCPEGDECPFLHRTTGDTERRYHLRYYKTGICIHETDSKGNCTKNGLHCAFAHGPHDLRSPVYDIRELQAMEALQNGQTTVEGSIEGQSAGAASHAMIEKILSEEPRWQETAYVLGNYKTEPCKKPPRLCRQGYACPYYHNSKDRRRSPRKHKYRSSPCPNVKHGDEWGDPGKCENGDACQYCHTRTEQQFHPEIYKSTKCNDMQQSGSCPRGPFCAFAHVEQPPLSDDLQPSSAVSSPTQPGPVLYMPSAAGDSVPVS
Technique: RNA Bind-n-Seq
Molecule type: RNA
Matrix: in vitro
Concentration: not given
Setting: RNA with constant flanks, human and mouse sites, ends assumed
Reference: input RNA pool
Reading: higher = stronger binding
Measurement: bound/input enrichment
All sequences stand within: GGGAGUUCUACAGUCCGACGAUC … CAACAGAGGAUUGAGCAUCA
Oligonucleotide = GAGGCCAUGAGCUAUGCCGAGGUCAUGAGGCUGGUGAAGGGCAUGAACUUCUCGGUGGUGGUAUUUGACACGGCACCCACGGGCCACACCCUGAGGCUGCUCAACUUCCCCACCAUCGUG; result = 0.0813 ratio
Oligonucleotide = UCAAAUAGAAAAGCACUUUCUUGUGUUCAUAUAACUCUUUGUCCCAAGACUUCUUCCAAGUUGGAUAGUGGAACUUUAGAUGAAAGAUUCCAUUCAUUGGAUGCUGCUUCUAAAGCGAGG; result = 0.483 ratio
Oligonucleotide = CCUGGGGAAGUAACAGAAACUGAAGUUAUUGCUUUAGGCUUACCUUUUGGUAAGGUGACCAACAUCCUUAUGCUGAAAGGAAAAAAUCAGGCAUUUUUGGAACUAGCAACCGAGGAAGCA; result = 0.222 ratio
Oligonucleotide = CUGGCCUGGCCCUCCCCAGGGGCCUCCUUUCGUAUAGUCACUGCUUCUGCAUCAGAUACUUUCAGCUGCAACUCCCUACUGGGUGGGGCACCCAUUUCAGGCAGAAGGUUUUGGUACCCU; result = 0.296 ratio
Oligonucleotide = GUCAUAUUUUUUUAAGAUUAUGUUUUUAUGUUCUUGGGCUAAUGGAGCAACACUGCCCCCUGACACAGUGACCACCCAAGCAGCAAAGCCGCCCUCGGCUCCUUCCUUCUUGCCUUGGGA; result = 1.13 ratio
Oligonucleotide = UAUGCAGGGGACGGUCCCGGCCCUGUUCGUCCAUUCUGUAAAUAACUUGUAAAUAGUCUUUAGCAUUCCUCUUGUAACAAGAUUAAUUUUUAUGAAAUAAAUUAUAUUUCCUAGUCUAAU; result = 12.1 ratio
Oligonucleotide = AUGGAAAAGGAUUCUCUGCCUCGCUUUGUGCGCUCUGAGUUUUAUCAGGAGUUAAUCAAGUAGUAAUUUAGCCAGGCUAUGAAAUCAUCCUGUGAGUUAUUUCCUCCAUAAUAACCCUGC; result = 0.541 ratio
Oligonucleotide = CUCCUGCUGCUGCUGCUCUGCAUCCAGCUCGGGGGAGGACAGAAGAAAAAGGAGAAUCUUUUAGCUGAAAAAGUAGAGCAGCUGAUGGAAUGGAGUUCCAGACGCUCAAUCUUCCGAAUG; result = 0.131 ratio
Oligonucleotide = GGUGAAGUUCAGUUGGUUCGUCAUAAGGCAUCACAGAAGGUUUAUGCAAUGAAGCUUCUUAGUAAAUUUGAAAUGAUAAAAAGAUCAGAUUCUGCUUUUUUCUGGGAAGAAAGAGAUAUU; result = 3.26 ratio
Oligonucleotide = UAACAGUGUGUUAAACUACUUUAUUGCUACAUUUAAAGGACUGUAUUUUCAUACUUUUUGCAUUUUACCUAUCAUCUACCAGUUUCCAUGUGCAUUGGGUUGCACACUAAGAUGUAUUUU; result = 0.301 ratio
Oligonucleotide = AGAUUGUUCUCCAGCAGCCUAGUGGCCAUCGUCAGCCUUAAAGCACCAAGGAAGCUAAAGGUUUGCCACUUUAAGAAGGGAACUGAGAUCUGCAACUACAGCUACUCCAACACGAUUCUG; result = 0.0762 ratio

Excerpt of the above (block 2):
Variant = C72R; result = 89%
Variant = E147N; result = 102%
Variant = H34C; result = 97.7%
Variant = E152P; result = 89.5%
Variant = S11M; result = 97.7%
Variant = H55E; result = 102%
Variant = R98K; result = 109%
